Results from different studies.
A part holds a random share of what one study measured. ± marks the error that the study gave.

Study 1
Organism: SARS-CoV-2 Wuhan spike VSV pseudovirus
Effect on: pseudovirus entry
Tested at: concentration not given
| SMILES | inhibition [%] |
| --- | --- |
| COC[C@@H]1CN(C(=O)c2cc(C3CC3)[nH]n2)C[C@H]1c1nc(C2CC2)no1 | 40 |
| CC(=O)N[C@@H]1CN(C(=O)CCc2c[nH]c3ccccc23)C[C@H]1CO | 48 |
| O=C(CCc1nc(-c2ccc(S(=O)(=O)N3CCCCC3)cc2)no1)NC1CCCC1 | 41 |
| Cc1ccc(S(=O)(=O)c2ccc(C(=O)NC3CCN(Cc4ccccc4)CC3)cn2)cc1C | 37 |
| C=C1CC2(C)C(=CC1=O)CCC1C2CCC2(C)C(OC(=O)OCC)CCC12 (stereo not shown) | 38 |
| Cc1oc2ncnc(N3CCC(C(=O)NC4CCCCCCC4)CC3)c2c1C | 42 |
| Cc1nc2ccccn2c1CC(=O)NCc1nc(-c2ccccc2)no1 | 44 |
| O=C(Nc1nc2c(s1)CN(Cc1ccccc1)CC2)c1ccc2ccccc2c1 | 41 |
| Cc1nc(N2CCCCCCC2)ncc1C(C)NC(=O)c1c(C)noc1C (stereo not shown) | 50 |
| Cc1sc2nc(CN3CCC(C)CC3)nc(-n3ccnc3)c2c1C | 37 |
| CO[C@@H]1[C@@H](O[C@@H]2O[C@H](C)[C@@H](O[C@H]3C[C@@](C)(O)[C@@H](O)[C@H](C)O3)[C@H](N(C)C)[C@H]2O)[C@@H](CC=O)C[C@@H](C)[C@@H](O[C@H]2CC[C@H](N(C)C)[C@@H](C)O2)/C=C/C=C/C[C@@H](C)OC(=O)C[C@H]1O | 43 |
| Oc1c(Cl)cc(Cl)cc1C1Nc2cc(Cl)c(C(F)(F)F)cc2N1 (stereo not shown) | 37 |
| CCn1cccc1-c1nc(C)c(C(=O)NCc2cc(OC)c(OC)c(OC)c2)s1 | 36 |
| Cc1ccc(-c2nccn2-c2cccc(-c3nnc(C)s3)c2)o1 | 39 |

Mixed results
rep nsp12 RdRp: Replicase polyprotein 1ab, nsp12 RdRp (rep, Severe acute respiratory syndrome coronavirus 2, UniProt P0DTD1)
rep papain-like protease: Replicase polyprotein 1ab, papain-like protease (rep, Severe acute respiratory syndrome coronavirus 2, UniProt P0DTD1)
rep nsp14: Replicase polyprotein 1ab, nsp14 (rep, Severe acute respiratory syndrome coronavirus 2, UniProt P0DTD1)
| Molecule | tested on | test | test system | setting | how to read | endpoint | value |
| --- | --- | --- | --- | --- | --- | --- | --- |
| C[C@H](CCC(=O)NCCS(=O)(=O)[O-])[C@H]1CC[C@H]2[C@@H]3[C@@H](O)C[C@@H]4C[C@H](O)CC[C@]4(C)[C@H]3CC[C@]12C.[Na+] | rep nsp12 RdRp | binding, biolayer interferometry | – | concentration not given | – | BLI response | 0 nm |
| CC(C)C[C@H](NC(=O)CNC(=O)c1cc(Cl)ccc1Cl)B(O)O | rep papain-like protease | – | – | concentration not given, C111S mutant | relative to: positive control | activity | 25.7% |
| SRVAVTAAQSTIEEQAKTFLDKFN | SARS-CoV-2 spike RBD | peptide spot array | peptide | concentration not given | relative to: wild-type ACE2 peptide | relative binding | 3.67 |
| O=C(NC1CCN(c2ncnc3[nH]cnc23)CC1)c1cccc(S(=O)(=O)Nc2ccccc2)c1 | rep nsp14 | enzyme activity | SARS-CoV-2 | concentration not given | – | inhibition | 50.1% |
| CCC(CC)COC(=O)[C@H](C)N[P@](=O)(OC[C@H]1O[C@@](C#N)(c2ccc3c(N)ncnn23)[C@H](O)[C@@H]1O)Oc1ccccc1 | SARS-CoV-2 | viral replication | Calu-3, Beta | – | – | EC90 | 100 ± 60 nM |
| O=C(NC1CCN(c2ncnc3[nH]cnc23)CC1)c1cccc(S(=O)(=O)N2CCCCC2)c1 | rep nsp14 | NSP14 enzyme activity, inhibitor | – | 0.7812 µM | – | inhibition | 11.8% |
| C[C@@H](O)[C@H]1C(=O)N2C(C(=O)O)=C(S[C@@H]3CN[C@H](C(=O)Nc4cccc(C(=O)[O-])c4)C3)[C@H](C)[C@H]12.[Na+] | rep nsp12 RdRp | binding, biolayer interferometry | – | concentration not given | – | BLI response | -0.03 nm |
| C[C@H](NC(=O)C(=O)Nc1ccccc1C(C)(C)C)C(=O)N[C@@H](CC(=O)O)C(=O)COc1c(F)c(F)cc(F)c1F | rep papain-like protease | – | – | concentration not given, C111S mutant | relative to: positive control | activity | 15.5% |
| Nc1ncnc2c1ncn2[C@@H]1O[C@H](CO)[C@@H](O)[C@@H]1O | SARS-CoV-2 | infectious virus yield | Vero C1008, Omicron BA.1 | 48 h | – | EC50 | 3210 ± 120 nM |
| CCC(CC)[C@H](NC(C)=O)[C@@H]1[C@H](O)[C@@H](C(=O)O)C[C@H]1N=C(N)N | neuraminidase (Influenza B virus, UniProt C0LT34, I221L) | – | – | – | – | IC50 | 37.7 ± 1.6 nM |
| SLVRVTAAQSTIEEQAKTFLDKFN | SARS-CoV-2 spike RBD | peptide spot array | peptide | concentration not given | relative to: wild-type ACE2 peptide | relative binding | 3.03 |
| C1=CC2C3C4C5C=CC4C24CNCC54C13.Cl | Matrix protein 2 (Influenza A virus, UniProt P0DOF5, S31N) | – | – | concentration not given, pH 5.5, cell-based | – | inhibition | 0% |
| OC[C@H]1O[C@@H](n2cnc3c(N[C@@H]4CCOC4)ncnc32)[C@H](O)[C@@H]1O | SARS-CoV-2 | infectious virus yield | Vero C1008, Omicron BA.1 | 48 h | – | EC50 | 2860 ± 110 nM |
| N#C[C@@]1(n2ccc(N)nc2=O)O[C@H](CO)[C@@H](O)[C@H]1O | SARS-CoV-2 Omicron | viral replication | Calu-3 | – | – | EC50 | 100 ± 50 nM |

A few entries again (mixed results):
| Molecule | tested on | test | test system | setting | how to read | endpoint | value |
| --- | --- | --- | --- | --- | --- | --- | --- |
| Nc1ncnc2c1ncn2[C@@H]1O[C@H](CO)[C@@H](O)[C@@H]1O | SARS-CoV-2 | infectious virus yield | Vero C1008, Omicron BA.1 | 48 h | – | EC50 | 3210 ± 120 nM |
| CCC(CC)[C@H](NC(C)=O)[C@@H]1[C@H](O)[C@@H](C(=O)O)C[C@H]1N=C(N)N | neuraminidase (Influenza B virus, UniProt C0LT34, I221L) | – | – | – | – | IC50 | 37.7 ± 1.6 nM |
